Experimental data of several laboratories.
Numbered parts are unrelated; each lists some results of a single study.

Block 1
Target: Phosphate system positive regulatory protein PHO4, full length, GST-tagged (PHO4, Saccharomyces cerevisiae, UniProt P07270, residues 1-312)
Technique: competition protein-binding microarray
Form: double-stranded DNA, one strand shown
Medium: in vitro
Concentration: 2 µM
Setting: whole 60-bp probe, lowest competitor level
With: Cbf1 competitor, 0.05 µM
Direction: higher = stronger binding
Constant ends, left off below: … GTCTTGATTCGCTTGACGCTGCTG
Target sequence (chain): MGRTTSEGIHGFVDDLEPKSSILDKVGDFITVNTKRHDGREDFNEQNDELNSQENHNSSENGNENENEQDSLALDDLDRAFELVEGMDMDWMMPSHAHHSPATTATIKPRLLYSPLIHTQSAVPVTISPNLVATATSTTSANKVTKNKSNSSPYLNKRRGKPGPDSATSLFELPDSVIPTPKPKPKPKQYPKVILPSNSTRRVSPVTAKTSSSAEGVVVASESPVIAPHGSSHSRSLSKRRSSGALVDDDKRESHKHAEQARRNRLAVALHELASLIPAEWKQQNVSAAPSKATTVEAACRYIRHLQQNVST
Sequence | fluorescence intensity [a.u.]
CATCTGCCATTCAACAACGTGCCAGCAGGCCTATTA | 14300
CGCTAGTACTTTATTCTCGTGGTGAGCATTTGAAGT | 8400
AAAGCGGTAATTTTTCACGTGTGCTCACATATCTAT | 12400
AATAATGCTGTAAGCCTCGTGACGGCATTTCATTAG | 9750
ATTGTCGCTGATAAAATCGTGATGGTCGATCAATGT | 5170
TCAATATAATTCTGTCATGCTTGGCCTTACTGCTTA | 4750
CTTTCCCGATCTTGAGGTGTGGGTGTAGCACATTTG | 5880
ATTAGTTCTGGTGCCATCGTGTCGGCTTTACCACAA | 7930
AAGTTACTGCCGCTTTACGTGTCTGTGACGGTGCTT | 4620
GGGTTGAACGACCGTCACATGTGTGCGGATGTAGTT | 9920
AAAGCGGTAATTTTTCACGTGTAATCAAATATCTAT | 12200
CTTCTGTAAATTTGGCGCGTGGGTGGACGCGCCCCG | 10400
TGCGCAACAACTTTTCACGTGGGCTTATGTCTAGAA | 14700
TAGGTCCAAAACTTGCGCGTGGAAGACGCTGGCCAT | 7190
AAAGCGGTAATTTAACACGTGTTTTCACATATCTAT | 21300
ACAAGCGGAGATTCACACGTTTAATTGGACCACTGG | 8820
CATACCCAACCTTGCTGAGTGGGTGAAGATATTTGT | 4380
TTGCAGCTGTTGGCGCGCGTGGTGATGCTGACGTTC | 10100
TGCGCAACAACTTGCGAAGTGGGTGTATGTCTAGAA | 4550
CCGTTCACCACTTTGCATGTGCTCTCAAGTACGGCC | 10700
CGGGGTTAAGTTTGTCACTCCACTTGCTTGCAGCAG | 3850
TGGATTAGTACTGTAGGCGTGCAAACTTTGTTCGCA | 7190
ACCAGACGAAATCGGCACGGCATTAGGAATTCGGTA | 4640
TGCGCAACAACTTGCGCGGTGGGTGTATGTCTAGAA | 4310

Block 2
Target: RNA binding protein fox-1 homolog 2, RRM domain, GST-SBP tag (RBFOX2, Homo sapiens, UniProt O43251-10, residues 100-194)
Technique: RNA Bind-n-Seq
Form: RNA
Medium: in vitro
Concentration: 365 nM
Setting: natural RNA segment, single round, ends assumed
Baseline: no-protein control
Direction: higher = stronger binding
Constant ends, left off below: GGGAGUUCUACAGUCCGACGAUC … UGGAAUUCUCGGGUGCCAA
Target sequence (chain): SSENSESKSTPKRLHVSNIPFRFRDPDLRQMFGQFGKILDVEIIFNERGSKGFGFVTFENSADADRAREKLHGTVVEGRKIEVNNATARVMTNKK
Sequence | RBNS enrichment (R)
CAAAUGCUAGCAUGUACUGUAUGGGAGGAUGAUCCAGAUGUUUCAAAGAGAAUUUCUCUUAGUUUAGUUAGGUGUAAUUCAGUAGCUUUAAAUUCUCAGGUCAGAACAUA | 21.4
GGCCUUUCUCAGAAGACUGUAAUGUACCUGAAGUUUCUGAAAUAUUGCAAACCCACAGAGUUUAGGCUGGUGCUGCCAAAAAGAAAAGCAACAUAGAGUUUAAGUAUCCA | 0.672
CCCUUGAAAUCCUAAUCUAAGACACUGCUUGAGUCCAAGGCAACCCUCAAUGAGACUAAGACUUGUGUUGGCUUUUUAAUAUCCUAGUUAGAGAGAAAUUGUAGCACAUU | 0.752
UAAUGCUAUCUGAAAAAUGUGUUUAUAUUAUAUUUUCAGAGCUGCAAUUCUUAUUCGCCAUUUCAAUACCUAGAGAUAGAGAGUCUUGUAUUUGAAGCCACACACACUGG | 0.444
UUGGCAAAAGGCUAACACCUGACUUUAGAAAAUGCUGAUUUGAGAACAAAAGGAAAGGUCUUUUUUCACUGCUUAAAGUGGGGUCACUUUGAUACCUUUGCGGUCAUGUC | 0.626
AUUUCUAUAAUCUAUUAAAAAAAAUGGAGAAUGUUUUCUCUCAAAUUUCCUCUGACCCAUGGGAAUGAAAAUACUUAAAUACUGUAAAGCAUAUCUAUUAAUAAUUCCCC | 0.39
GUCAUCGUUUUAACUGGGAACACUUGGUCACUACAAGGACAUGUCCUGGUUCCCUGGGACAGCAGGAUCCCCUCCUCAAAGCAGCCAGAGUUUACUGAACACCAAGGAAG | 0.208
UGUGAUGACUGUGGAAAGGCCUUCUCGCAGAGCUCCGACCUCAUCCGCCACCAGCGGACCCACGCAGCCGGCCGCCGUUAACCAGUCACGGGUGGGGAGGUGGUGUGCAG | 0.24
UAGACUCAAGAUCAAAACAGCAUACCUGCUAAGCUAAGAUAGAUGGUGUUGAUUCCACUGGGUUUUGAUCAAUACAAUAACAAACCUUUUUCCUUUGACAUACUCUGAAU | 0.447
CUCUUAGUCUUUAAGUUCAAAGACUAACCUGUAGCAAUCAGACUUUCCAAAAGGGGGUUCUCCAUUUUUUGUAGUUUUGUCUAAAUUUUUAAUGACCAUUUCCUGGAAUC | 1.03
GUCAUGAAUGUUUCCCCUUUAUUUUUCCAAUAAAAAAAAGCAGUGGGAUGAAAAUUGCUUUGAUAUAUAGCAGGUAUAUUGAAGCUAUUCCAUAGCACUUAACUGUAGUG | 1.31
GUUGUAUUGCUUUGCACAAAAUUAGGAACAGGUGUUUGACAAUUGAAUUUGUUUUCUGUGAAUUCUAACCUCUAAAGGCAUGCUUAGAGGUCAAGGACCUUCCUGUGUAG | 16.8

Block 3
Target: Histone acetyltransferase KAT6A, winged helix 2, GST fusion (KAT6A, Homo sapiens, UniProt Q92794, residues 85-181)
Technique: protein binding microarray
Form: double-stranded DNA, one strand shown
Medium: in vitro
Concentration: not given
Setting: 8-mer, flanks averaged, mean of 2 arrays, mostly near background
Baseline: not given
Direction: higher = stronger binding
Construct (chain): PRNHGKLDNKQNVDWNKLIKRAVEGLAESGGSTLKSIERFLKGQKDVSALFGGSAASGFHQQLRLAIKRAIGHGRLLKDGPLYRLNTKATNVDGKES
Sequence | E-score
AAAAAATT | -0.0348
CCAGGCAC | 0.0983
GCCATAGC | 0.0348
CTCAACTC | -0.0158
CCTATTAG | -0.0225
ATCCGAAA | 0.047
ACCCATCG | -0.0138
TCATTTCA | 0.0043
ACCAGCGG | 0.134
AACAGGTA | -0.239
CCACCGCG | 0.182
AAGGACTC | -0.178
AGGGCCGA | 0.183
AAGCGTAC | -0.167
ATCTACAC | -0.0173
ATGGAAAA | 0.0735
CTGAGTGC | -0.0497
AAAAGTTA | -0.0505
CATCTCGA | 0.0198
AAATAGTC | -0.142
TCTAAAGA | 0.226
AGCATGGC | 0.185
AAATATGA | 0.0262

Block 4
Target: Interferon regulatory factor 5, full length, phosphomimetic (IRF5, Homo sapiens, UniProt Q13568-2, residues 1-514, S451D/S453D/S456D/S462D)
Technique: protein-binding microarray
Form: double-stranded DNA, one strand shown
Medium: in vitro
Concentration: 940 nM top
Setting: 60-bp whole probe
With: salmon DNA 0.4 mg/ml
Baseline: random background probes
Direction: higher = stronger binding
Constant ends, left off below: GCCTAGCAC … GTCTTGATTCGCTTGACGCTGCTG
Sequence | fitted relative affinity [z-score]
GACGGACTGGGTTTCGGGTCGTGCTAG | 5.49
TCAAATTTCTTTCTAATACTGTGCTAG | 1.43
CTAGGTCTCGGTTTCGGTTAGTGCTAG | 9.37
GACGGTATCCTTATCCTTACGTGCTAG | 0.384
ATGACCTCACTGCCTGACACGTGCTAG | -0.0981
TCAGGAGTCAACTCTCTAACTGTGCTA | -0.422
GACCGACTGGACTTTCGGGACGTGCTA | 1.01
TTAGGACTGGGCTTCGGTTAGTGCTAG | -0.45
TCACCTTTGAAAGTTGTTACTGTGCTA | 0.611
GACGGACTGCAACTGCTGACGTGCTAG | -0.742
TTAGGTATCCTACGGCTTTAGTGCTAG | -0.269
TTTGGTTTCGGGACTGGGTTAGTGCTA | 10.5
TGAGGACTGGACTATCGGTTAGTGCTA | -0.218
GACGATTTCCTTCTCCTGACGTGCTAG | 0.748
GTCGATCTCAGACTGGAGACGTGCTAG | -0.16
GAGGGACTGGGACTGGGGACGTGCTAG | -0.43
TCATACTTCACTCTCTGACTGTGCTAG | 1.09
TCACCTCTCTGTCCCCCACTGTGCTAG | 1.26
GACGGTATCCTTCTCCTGAAGTGCTAG | 0.268
TCATTATCCTATATCTGACTGTGCTAG | 0.51

Repeated from above (block 2):
Sequence | RBNS enrichment (R)
CAAAUGCUAGCAUGUACUGUAUGGGAGGAUGAUCCAGAUGUUUCAAAGAGAAUUUCUCUUAGUUUAGUUAGGUGUAAUUCAGUAGCUUUAAAUUCUCAGGUCAGAACAUA | 21.4
GGCCUUUCUCAGAAGACUGUAAUGUACCUGAAGUUUCUGAAAUAUUGCAAACCCACAGAGUUUAGGCUGGUGCUGCCAAAAAGAAAAGCAACAUAGAGUUUAAGUAUCCA | 0.672
CCCUUGAAAUCCUAAUCUAAGACACUGCUUGAGUCCAAGGCAACCCUCAAUGAGACUAAGACUUGUGUUGGCUUUUUAAUAUCCUAGUUAGAGAGAAAUUGUAGCACAUU | 0.752
UAAUGCUAUCUGAAAAAUGUGUUUAUAUUAUAUUUUCAGAGCUGCAAUUCUUAUUCGCCAUUUCAAUACCUAGAGAUAGAGAGUCUUGUAUUUGAAGCCACACACACUGG | 0.444
UUGGCAAAAGGCUAACACCUGACUUUAGAAAAUGCUGAUUUGAGAACAAAAGGAAAGGUCUUUUUUCACUGCUUAAAGUGGGGUCACUUUGAUACCUUUGCGGUCAUGUC | 0.626
AUUUCUAUAAUCUAUUAAAAAAAAUGGAGAAUGUUUUCUCUCAAAUUUCCUCUGACCCAUGGGAAUGAAAAUACUUAAAUACUGUAAAGCAUAUCUAUUAAUAAUUCCCC | 0.39
GUCAUCGUUUUAACUGGGAACACUUGGUCACUACAAGGACAUGUCCUGGUUCCCUGGGACAGCAGGAUCCCCUCCUCAAAGCAGCCAGAGUUUACUGAACACCAAGGAAG | 0.208
UGUGAUGACUGUGGAAAGGCCUUCUCGCAGAGCUCCGACCUCAUCCGCCACCAGCGGACCCACGCAGCCGGCCGCCGUUAACCAGUCACGGGUGGGGAGGUGGUGUGCAG | 0.24
